Measurements collected from several papers.
Parts stem from different laboratories: compare values within a part only.

Set 1
Target: Interferon regulatory factor 7, full length, phosphomimetic (IRF7, Homo sapiens, UniProt Q92985, residues 1-503, S101K/S471D/S472D/S475D/S476D/S477D/S483D/S484D/S487D)
Method: protein-binding microarray
Molecule type: double-stranded DNA, one strand shown
Medium: in vitro
Concentration: 250 nM
Setting: 60-bp whole probe
Together with: salmon DNA 0.4 mg/ml
Relative to: random background probes
Direction: higher = stronger binding
Residues (chain): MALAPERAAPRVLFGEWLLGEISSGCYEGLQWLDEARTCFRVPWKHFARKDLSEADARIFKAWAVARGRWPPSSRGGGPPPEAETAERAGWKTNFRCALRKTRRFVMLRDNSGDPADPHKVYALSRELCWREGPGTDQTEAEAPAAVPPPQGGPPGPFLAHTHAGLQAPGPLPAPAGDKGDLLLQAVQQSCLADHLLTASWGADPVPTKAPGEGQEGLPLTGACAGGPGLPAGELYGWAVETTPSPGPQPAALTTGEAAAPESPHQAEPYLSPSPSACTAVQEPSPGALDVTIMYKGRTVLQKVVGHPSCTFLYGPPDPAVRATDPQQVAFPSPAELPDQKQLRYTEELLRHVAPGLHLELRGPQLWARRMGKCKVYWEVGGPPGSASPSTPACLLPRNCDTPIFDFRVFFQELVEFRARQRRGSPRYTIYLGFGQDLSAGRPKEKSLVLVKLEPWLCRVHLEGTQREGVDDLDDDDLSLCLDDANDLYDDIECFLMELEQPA
Sequence	log fluorescence
GCCTAGCACGACGGTTTCTGGTTTCGGGACGTGCTAGTCTTGATTCGCTTGACGCTGCTG	7.82 z-score
GCCTAGCACTTAGGACTACTTCTCCTTTAGTGCTAGGTCTTGATTCGCTTGACGCTGCTG	0.555 z-score
GCCTAGCACTTAGGTTTCGACACTGGGTTTGTGCTAGTCTTGATTCGCTTGACGCTGCTG	3.18 z-score

Set 2
Target: Prothrombin, mature alpha-thrombin (F2, Homo sapiens, UniProt P00734)
Method: aptamer microarray, sandwich
Molecule type: DNA with 2'F-ANA
Medium: in vitro
Concentration: 200 nM
Setting: whole 15-mer aptamer, many near background
Together with: Cy3 exosite-II aptamer, 400 nM
Direction: higher = stronger binding
Sequence	mean fluorescence intensity [a.u.]
GGTTGGTGTGGTTGG (2'F-ANA at 2 4 8 9 11 12 13 14)	106
GGTTGGTGTGGTTGG (2'F-ANA at 4 5 7 8 11)	62.9
GGTTGGTGTGGTTGG (2'F-ANA at 1 3 4 7 8 9 10 12 13 14 15)	86.2

Further values, each from its own experiment
Molecule	target	test	system	conditions	scale	measurement	result
CGCACTGA	Histone acetyltransferase KAT6A, winged helix 1, GST fusion (KAT6A, Homo sapiens, UniProt Q92794, residues 1-85)	protein binding microarray	double-stranded DNA, one strand shown, in vitro	not given, 8-mer, flanks averaged, mean of 2 arrays, mostly near background	relative to: not given, higher = stronger binding	E-score	0.154
PhoQ, residues 284 288 289 292 302 303 SSTLLI	PhoP, residues 12 14 15 18 19 VQGLL (Escherichia coli, UniProt P23836)	Sort-seq, measured: YFP reporter	E. coli	PhoQ-PhoP variant library, together with: 10 µM Mg2+	relative to: high Mg2+ state, higher = stronger signaling	fold induction	9.44

Repeated from above (set 2):
Sequence	mean fluorescence intensity [a.u.]
GGTTGGTGTGGTTGG (2'F-ANA at 1 3 4 7 8 9 10 12 13 14 15)	86.2
